# Experimental data from different studies.
# “And” joins repeats or separate records; there may be more than shown. ± marks the error that the study gave.
Compound,test,system,setting,scale,measurement,result
CC#Cc1cncc(-c2ccc3c(c2)[C@@]2(N=C(C)C(N)=N2)[C@]2(CC[C@H](OC)CC2)C3)c1,CSF Aβ40 reduction,beagle dog,"oral, CSF concentration basis",,IC50,3.8 nM
Cn1cc(Nc2nc(N)nc(-c3cccc(-n4ccc5cc(C6CC6)cc(F)c5c4=O)c3CO)n2)cn1,"CD63 upregulation, anti-IgE-induced","human, multiple ascending dose, whole blood basophils ex vivo","150 mg twice daily, day 14, 6 h",,inhibition,93.6%
Cc1c(C(=O)Nc2ccc(N3C[C@@H](C)O[C@@H](C)C3)nc2)cccc1-c1ccc(OC(F)(F)F)cc1,"indirect response model, measured: Gli1 mRNA, stromal",mouse,,,Hill coefficient,6.38
CC1(C)CCC(c2ccc(Cl)cc2)=C(CN2CCN(c3ccc(C(=O)NS(=O)(=O)c4ccc(N[C@H](CCN5CCOCC5)CSc5ccccc5)c(S(=O)(=O)C(F)(F)F)c4)cc3)CC2)C1,cell kill,"primary neoplastic B cells, dog 37","24 h, multicentric marginal zone lymphoma",,EC50,> 50000 nM
COc1cc(-c2ccccc2)ncc1C(=O)Nc1ccc2c(=O)[nH]c(-c3ccc(C(C)(C)O)cc3)nc2c1,"RNA-seq GSEA, measured: HALLMARK_FATTY_ACID_METABOLISM","organoids, small intestinal, Apc Q1405X, mouse","dose not given, 3 days, knockout organoids","relative to: DMSO, direction not given",normalized enrichment score,2.12
CO[C@H]1CC[C@H](N2C(=O)CNc3ncc(-c4ccc(C(C)(C)O)nc4)nc32)CC1,flow cytometry,"stimulated monocytes, human, blood","60 mg single dose, 3 h, median",relative to: baseline,pAKT change from baseline,-48.4%
COC(=O)c1c(C)[nH]c(C)c1C(=O)c1ccccc1Cc1ccccc1,high-content microscopy,"DRG neurons, rat","dose not given, unit not given, together with: DAMGO 0.3",relative to: no DAMGO,serotonin-induced response,0.588 and 0.387 and 0.503 and 0.575
COc1ccc(-c2cncc(N[C@@H](C)c3cccc(NC(=O)c4cncc(C)c4)c3)n2)cc1OC,measured: rno-miR-151-3p,"rat SU5416/hypoxia model, lung",dose not given,relative to: SU5416/hypoxia vehicle,fold change,0.998
CN1CC[C@@H](c2c(O)cc(O)c3c(=O)cc(-c4ccc(C(F)(F)F)cc4Cl)oc23)[C@@H]1CO,,"human, AML, morphologic leukemia-free state","concentration not given, baseline 6%",,bone marrow blasts,4%
C[C@@H](NC(=O)N1C(=O)[C@H](Cc2ccnc(N)c2)[C@H]1C(=O)O)C1CCCCC1,,human,"iv infusion, 0.3 mg/kg/h, 24 h",,time to ACT Emax,60 h
OC(CCN1CCCCC1)(c1ccccc1)C1CC2C=CC1C2 (stereo not drawn),resting-state EEG,healthy elderly humans,"oral, 2 mg, eyes open, LS mean",,"EEG theta power, O1 Pz",5 µV²
COc1cc2cc(-c3ccc(CC(=O)Nc4cc(C(C)(C)C(F)(F)F)no4)cn3)cnc2cc1OC,RECIST v1.1,human RET-mutant medullary thyroid cancer,"75 mg, phase I",,best overall response CR,0%
COc1ncc(-c2nc3c(n2C(C)C)[C@H](c2ccc(Cl)cc2)N(c2cc(Cl)cn(C)c2=O)C3=O)c(OC)n1,International Working Group criteria,human acute myeloid leukemia patients,"oral, 20 to 30 mg, response CRi, low-dose",,best overall response,0%
N#Cc1ccc2c(c1)[C@H]1CCCN(C(=O)c3ccc4[nH]cnc4c3)[C@H]1C2,measured: HDL,human,"240 mg once daily, day 28, adjusted mean",relative to: placebo,change from baseline,-1.13 mg/dL
N#Cc1ccc2c(-c3ccncc3)c(-c3ccc(F)cc3)nn2c1,"kinase binding, competitor, MIB/MS competition, measured: YPK1",Candida albicans cell lysate,1 µM,relative to: DMSO,log2 fold change,0.00977
Cc1oncc1C(=O)Nc1ccc(C(F)(F)F)cc1,measured: dihydroorotate,"female CD-1 mice, pooled urine","oral, 30 mg/kg daily, 8-24 h after dose 3",,DHO concentration,13700 ± 140 µM
O=C(O)CNC(=O)Cc1ccccc1,,"ventricular cardiomyocytes, C57BL/6 mouse","dose not given, 0.316 s",,sarcomere length,1.72 µm
CCCCCCCCCCCCCCCC(=O)NCCOC(=O)C[C@@H](CN)CC(C)C,mechanical withdrawal threshold,"mouse, paclitaxel neuropathic pain",oral,,ED50,5.54 mg/kg
